Results from different studies.
Protocols differ between the studies behind these lines.
TDP1: Tyrosyl-DNA phosphodiesterase 1 (TDP1, Homo sapiens, UniProt Q9NUW8)
UniProt Q9NUW8, sequence (whole entry, looked up): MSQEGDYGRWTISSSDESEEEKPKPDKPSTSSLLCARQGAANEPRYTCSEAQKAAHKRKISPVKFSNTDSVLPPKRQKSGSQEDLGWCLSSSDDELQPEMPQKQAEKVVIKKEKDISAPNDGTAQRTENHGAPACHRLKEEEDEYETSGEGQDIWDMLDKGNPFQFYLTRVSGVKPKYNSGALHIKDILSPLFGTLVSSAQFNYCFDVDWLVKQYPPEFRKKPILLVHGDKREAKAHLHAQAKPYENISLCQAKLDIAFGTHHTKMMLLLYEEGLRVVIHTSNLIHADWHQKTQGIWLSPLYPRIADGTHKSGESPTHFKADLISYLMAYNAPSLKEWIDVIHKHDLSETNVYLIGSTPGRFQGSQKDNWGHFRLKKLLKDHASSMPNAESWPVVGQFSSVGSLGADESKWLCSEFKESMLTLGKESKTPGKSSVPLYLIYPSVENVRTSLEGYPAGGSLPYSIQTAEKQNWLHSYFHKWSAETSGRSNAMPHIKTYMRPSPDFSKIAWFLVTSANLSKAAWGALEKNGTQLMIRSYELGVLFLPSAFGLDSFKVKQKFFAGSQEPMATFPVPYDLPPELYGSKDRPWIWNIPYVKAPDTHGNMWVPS

Cc1c(C=NOCc2ccc(-c3nc4cc(-c5ccccc5)ccn4c3Nc3ccc(C(=O)O)cc3)cc2)c2ccccn2c1CCC#N (mixture of isomers) — inhibition (TDP1; enzyme activity, inhibitor; 100 µM, unpurified compound): 69.4%
Nc1ccc2cc(/C=C/C(=O)c3ccc(O)cc3)ccc2c1 — emission maximum (toluene; 20 °C): 512 nm
CN1CCN(c2ccc(/C=C/c3cc(=O)cc(/C=C/c4ccc(N5CCN(C)CC5)cc4)o3)cc2)CC1 — emission maximum (acetonitrile/water 1:19 v/v; 10 µM, 298 K, aggregate nanoparticle suspension): 572 nm
COC(=O)c1ccccc1-c1c2ccc(=O)cc-2oc2c1ccc1cccc(O)c12 — emission maximum (12.5 mM aqueous NaOH; pH 12.1, 10% DMSO): 760 nm
CCCCN1C(=O)c2cccc3c(NCCCCCCCCCCN4CCOCC4)ccc(c23)C1=O — emission maximum (methanol): 538 nm
COC(=O)c1ccccc1-c1c2ccc(=[N+](C)C)cc-2oc2c1ccc1cccc(O)c12 — emission maximum (12.5 mM aqueous NaOH; pH 12.1, 10% DMSO): 780 nm
Nc1cccc2ccc(/C=C/C(=O)c3ccc(C(F)(F)F)cc3)cc12 — emission maximum (toluene; 20 °C): 567 nm
CCCCN1C(=O)c2cccc3c(NCCCN4CCOCC4)ccc(c23)C1=O — emission maximum (chloroform): 503 nm
O=c1cc(/C=C/c2ccc(N3CCOCC3)cc2)oc(/C=C/c2ccc(N3CCOCC3)cc2)c1 — emission maximum (acetonitrile/water 1:19 v/v; 10 µM, 298 K, aggregate nanoparticle suspension): 557 nm
CCCCN1C(=O)c2cccc3c(NCCCCCCCCN4CCOCC4)ccc(c23)C1=O — emission maximum (toluene): 503 nm
CC1(C)C(/C=C/C2=C(Cl)C(=C/C=C3/N(CCCCCC(=O)O)c4ccccc4C3(C)C)/C[N+](C)(C)C2)=[N+](CCCCCC(=O)O)c2ccccc21 — emission maximum (methanol): 781 nm
Cc1nc2sccn2c1C=NOCc1ccc(-c2nc3cc(-c4ccccc4)ccn3c2Nc2ccc(C(=O)O)cc2)cc1 — inhibition (TDP1; enzyme activity, inhibitor; 100 µM, unpurified compound): 93%
CCCCN1C(=O)c2cccc3c(NCCCCN4CCOCC4)ccc(c23)C1=O — emission maximum (chloroform): 498 nm
CN(C)c1ccc(/C=C/c2cc(=O)cc(/C=C/c3ccc(N(C)C)cc3)o2)cc1 — emission maximum (acetonitrile/water 1:19 v/v; 10 µM, 298 K, aggregate nanoparticle suspension): 602 nm

Some of these lines once more:
CC1(C)C(/C=C/C2=C(Cl)C(=C/C=C3/N(CCCCCC(=O)O)c4ccccc4C3(C)C)/C[N+](C)(C)C2)=[N+](CCCCCC(=O)O)c2ccccc21 — emission maximum (methanol): 781 nm
CCCCN1C(=O)c2cccc3c(NCCCCCCCCCCN4CCOCC4)ccc(c23)C1=O — emission maximum (methanol): 538 nm
